Results gathered from unrelated publications.
Protocols differ between the studies behind these lines. Numbers after ± are the reported error.
4'-phosphopantetheinyl transferase PptT: 4'-phosphopantetheinyl transferase PptT (Mycobacterium tuberculosis, UniProt O33336)
Sequence of UniProt O33336 (whole entry, looked up): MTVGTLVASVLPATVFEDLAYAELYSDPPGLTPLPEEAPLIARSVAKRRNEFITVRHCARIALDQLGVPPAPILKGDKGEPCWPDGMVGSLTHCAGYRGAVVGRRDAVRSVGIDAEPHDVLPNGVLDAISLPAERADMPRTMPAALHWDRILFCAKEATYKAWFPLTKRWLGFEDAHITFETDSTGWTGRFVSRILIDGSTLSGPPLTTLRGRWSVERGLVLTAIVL
gpmI: 2,3-bisphosphoglycerate-independent phosphoglycerate mutase (gpmI, Mycoplasma pneumoniae, UniProt P75167)
Sequence of UniProt P75167 (whole entry, looked up): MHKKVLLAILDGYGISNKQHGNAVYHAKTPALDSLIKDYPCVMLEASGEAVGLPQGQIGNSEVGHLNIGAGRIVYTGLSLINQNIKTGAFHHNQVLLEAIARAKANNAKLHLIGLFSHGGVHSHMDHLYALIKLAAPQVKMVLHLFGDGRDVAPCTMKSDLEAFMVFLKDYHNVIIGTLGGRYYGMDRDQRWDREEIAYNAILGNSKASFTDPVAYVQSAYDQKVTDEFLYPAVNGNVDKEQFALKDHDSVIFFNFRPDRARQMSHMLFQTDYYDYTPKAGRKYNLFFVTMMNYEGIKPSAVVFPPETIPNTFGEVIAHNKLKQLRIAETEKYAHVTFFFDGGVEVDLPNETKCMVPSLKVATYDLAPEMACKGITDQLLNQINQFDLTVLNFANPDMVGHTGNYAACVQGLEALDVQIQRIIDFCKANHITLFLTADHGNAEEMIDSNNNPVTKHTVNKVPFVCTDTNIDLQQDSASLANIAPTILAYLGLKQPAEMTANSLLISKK
CNR2 L182I: Cannabinoid receptor 2 (CNR2, Homo sapiens, UniProt P34972, L182I)
Sequence of UniProt P34972 (whole entry, unmodified, looked up): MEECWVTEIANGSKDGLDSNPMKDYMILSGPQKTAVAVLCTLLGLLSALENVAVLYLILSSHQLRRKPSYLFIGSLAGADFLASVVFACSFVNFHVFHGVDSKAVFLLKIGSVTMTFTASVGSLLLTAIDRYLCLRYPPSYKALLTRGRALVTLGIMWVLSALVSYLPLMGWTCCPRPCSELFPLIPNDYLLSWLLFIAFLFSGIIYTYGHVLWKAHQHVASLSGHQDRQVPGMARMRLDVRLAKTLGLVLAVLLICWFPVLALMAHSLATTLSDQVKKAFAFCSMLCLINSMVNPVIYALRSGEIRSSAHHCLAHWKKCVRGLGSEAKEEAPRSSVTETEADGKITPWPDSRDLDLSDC
2,3-bisphosphoglycerate-independent phosphoglycerate mutase: 2,3-bisphosphoglycerate-independent phosphoglycerate mutase (Wuchereria bancrofti, UniProt B1P0R4)
Melanocortin receptor 5: Melanocortin receptor 5 (Mus musculus, UniProt P41149)
Sequence of UniProt P41149 (whole entry, looked up): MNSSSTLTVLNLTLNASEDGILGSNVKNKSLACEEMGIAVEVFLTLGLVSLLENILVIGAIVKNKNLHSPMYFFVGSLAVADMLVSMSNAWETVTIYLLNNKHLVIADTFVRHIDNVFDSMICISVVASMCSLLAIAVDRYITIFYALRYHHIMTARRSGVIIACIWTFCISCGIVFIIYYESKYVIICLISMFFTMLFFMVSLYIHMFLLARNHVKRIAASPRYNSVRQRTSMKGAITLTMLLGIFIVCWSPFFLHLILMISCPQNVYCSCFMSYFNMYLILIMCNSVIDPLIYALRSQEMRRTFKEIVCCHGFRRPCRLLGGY
Sequence of UniProt P29323 (whole entry, looked up): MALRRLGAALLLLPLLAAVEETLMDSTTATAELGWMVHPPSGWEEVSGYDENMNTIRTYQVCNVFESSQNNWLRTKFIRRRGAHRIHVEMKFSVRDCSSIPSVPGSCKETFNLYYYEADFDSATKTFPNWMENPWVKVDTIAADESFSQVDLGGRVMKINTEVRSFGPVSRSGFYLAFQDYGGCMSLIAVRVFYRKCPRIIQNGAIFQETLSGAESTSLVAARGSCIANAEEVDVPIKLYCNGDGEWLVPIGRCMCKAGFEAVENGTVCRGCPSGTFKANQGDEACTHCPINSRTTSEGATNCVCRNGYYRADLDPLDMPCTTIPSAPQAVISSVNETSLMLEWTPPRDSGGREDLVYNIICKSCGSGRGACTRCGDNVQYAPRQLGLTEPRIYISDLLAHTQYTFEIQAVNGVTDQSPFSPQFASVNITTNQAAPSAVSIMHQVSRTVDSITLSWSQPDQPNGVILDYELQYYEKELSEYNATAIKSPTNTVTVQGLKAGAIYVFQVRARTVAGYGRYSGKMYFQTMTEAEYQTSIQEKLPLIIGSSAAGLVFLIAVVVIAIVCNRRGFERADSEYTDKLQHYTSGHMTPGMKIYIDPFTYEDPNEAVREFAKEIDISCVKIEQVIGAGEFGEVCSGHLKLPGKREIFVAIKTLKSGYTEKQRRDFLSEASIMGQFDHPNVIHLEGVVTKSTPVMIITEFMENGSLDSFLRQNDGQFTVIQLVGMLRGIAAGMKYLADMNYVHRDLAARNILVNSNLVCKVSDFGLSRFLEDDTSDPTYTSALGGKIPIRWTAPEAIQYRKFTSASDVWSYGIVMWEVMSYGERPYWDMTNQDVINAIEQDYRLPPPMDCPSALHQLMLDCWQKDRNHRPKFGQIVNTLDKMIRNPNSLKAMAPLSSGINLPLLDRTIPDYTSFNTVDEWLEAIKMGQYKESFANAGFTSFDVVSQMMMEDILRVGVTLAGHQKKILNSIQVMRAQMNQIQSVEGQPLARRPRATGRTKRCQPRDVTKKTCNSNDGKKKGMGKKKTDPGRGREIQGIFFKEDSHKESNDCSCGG
Sequence of UniProt P33261 (whole entry, looked up): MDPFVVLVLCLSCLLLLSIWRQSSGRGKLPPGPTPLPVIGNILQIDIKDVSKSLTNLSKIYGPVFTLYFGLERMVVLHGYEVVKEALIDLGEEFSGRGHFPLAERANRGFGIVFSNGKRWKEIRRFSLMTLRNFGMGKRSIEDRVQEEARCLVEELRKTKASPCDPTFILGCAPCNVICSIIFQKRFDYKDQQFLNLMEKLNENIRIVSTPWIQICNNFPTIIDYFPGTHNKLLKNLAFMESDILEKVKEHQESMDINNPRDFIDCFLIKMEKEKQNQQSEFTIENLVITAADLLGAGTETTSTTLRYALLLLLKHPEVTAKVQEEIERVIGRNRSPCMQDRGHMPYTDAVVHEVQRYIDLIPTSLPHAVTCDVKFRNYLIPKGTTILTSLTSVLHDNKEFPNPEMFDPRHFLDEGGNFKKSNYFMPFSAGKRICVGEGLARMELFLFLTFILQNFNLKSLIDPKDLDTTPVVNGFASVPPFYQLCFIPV
Sequence of UniProt P9WFK7 (whole entry, looked up): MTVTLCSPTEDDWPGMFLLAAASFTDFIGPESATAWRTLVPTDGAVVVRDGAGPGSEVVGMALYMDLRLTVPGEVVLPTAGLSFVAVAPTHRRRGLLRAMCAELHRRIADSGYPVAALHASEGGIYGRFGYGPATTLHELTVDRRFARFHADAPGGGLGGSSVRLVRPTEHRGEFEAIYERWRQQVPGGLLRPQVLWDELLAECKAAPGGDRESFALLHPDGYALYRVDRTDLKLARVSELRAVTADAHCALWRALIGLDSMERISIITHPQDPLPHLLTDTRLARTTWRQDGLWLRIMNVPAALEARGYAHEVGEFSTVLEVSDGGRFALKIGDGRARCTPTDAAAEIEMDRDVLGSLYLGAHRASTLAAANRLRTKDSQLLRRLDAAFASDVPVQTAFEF
Sequence of UniProt P01902 (whole entry, looked up): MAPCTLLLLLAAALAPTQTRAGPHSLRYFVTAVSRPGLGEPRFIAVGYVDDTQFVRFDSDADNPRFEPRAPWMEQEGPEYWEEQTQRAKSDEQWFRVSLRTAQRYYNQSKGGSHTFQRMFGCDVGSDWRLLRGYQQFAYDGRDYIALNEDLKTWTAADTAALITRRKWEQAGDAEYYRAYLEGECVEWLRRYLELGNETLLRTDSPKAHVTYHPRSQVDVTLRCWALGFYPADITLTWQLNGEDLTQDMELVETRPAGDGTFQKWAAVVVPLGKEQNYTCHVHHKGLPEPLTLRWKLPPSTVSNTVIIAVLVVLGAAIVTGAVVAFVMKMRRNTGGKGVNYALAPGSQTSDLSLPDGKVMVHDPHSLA

Compound | target or system | assay | test system | setting | measurement | result
CCOC(=O)CC[C@@H](NC(=O)c1ccc(N(C)Cc2ccc3[nH]c(C)nc(=O)c3c2)s1)C(=O)OCC | 4'-phosphopantetheinyl transferase PptT | enzyme activity, inhibitor, fluorescence polarization |  | enzyme 100 nM | IC50 | 1190 nM
CN1C(=O)[C@H](Cc2ccc(O)cc2)NC(=O)CNC(=O)[C@H](Cc2ccc(O)cc2)NC(=O)[C@H](CCC(=O)O)NC(=O)[C@H](Cc2ccc(O)cc2)N(C)C(=O)[C@H](Cc2ccc(O)cc2)N(C)C(=O)[C@H](CCC(N)=O)NC(=O)[C@H](Cc2c[nH]c3ccccc23)NC(=O)[C@H](Cc2ccc(O)cc2)NC(=O)[C@@H](Cc2ccc(O)cc2)NC(=O)CSC[C@@H](C(N)=O)NC(=O)[C@H](CCCCN)NC(=O)[C@@H]1Cc1ccc(O)cc1 | gpmI | biochemical |  |  | AC50 | 14100 nM
CCCCCn1cc(C(=O)c2ccc3c(c2)CC(C)(C)C3)c2ccccc21 | CNR2 L182I | G protein activation, agonist, BRET |  |  | EC50 | 44.7 nM
CC(C)[C@@H]1NC(=O)[C@H](CCCNC(=N)N)NC(=O)[C@H](Cc2ccc(O)cc2)NC(=O)[C@H](CO)NC(=O)[C@H](Cc2ccc(O)cc2)NC(=O)[C@H](CC(N)=O)NC(=O)CNC(=O)[C@H](Cc2ccc(O)cc2)NC(=O)[C@H](Cc2ccccc2)NC(=O)[C@H](CC(=O)O)NC(=O)[C@H](Cc2ccc(O)cc2)NC(=O)[C@H](Cc2ccccc2)NC(=O)[C@H](Cc2ccc(O)cc2)NC(=O)[C@H](Cc2ccc(O)cc2)NC(=O)CSC[C@@H](C(N)=O)NC(=O)[C@@H]2CCCN2C1=O | 2,3-bisphosphoglycerate-independent phosphoglycerate mutase | biochemical |  |  | AC50 | 16600 nM
Cc1nc(=O)c2cc(CN(C)c3cccc(C(=O)NCCCS(C)(=N)=O)c3)ccc2[nH]1 (stereo not drawn) | 4'-phosphopantetheinyl transferase PptT | enzyme activity, inhibitor, fluorescence polarization |  | enzyme 100 nM | IC50 | 33900 nM
CNC(=O)C1CCN(c2ccccc2NC(=O)c2ccc(-c3cc(O)ccc3C)c(C)n2)CC1 | EPHB2 (Homo sapiens, UniProt P29323) | cell-free assay, TR-FRET |  |  | Ki | 0.2 nM
Cc1nc(=O)c2cc(CN(C)c3ccc(C(=O)NCCNS(C)(=O)=O)s3)ccc2[nH]1 | 4'-phosphopantetheinyl transferase PptT | enzyme activity, inhibitor, fluorescence polarization |  | enzyme 100 nM | IC50 | 1130 nM
CCCCCn1cc(C(=O)c2cccc3ccccc23)c2ccccc21 | CNR2 L182I | G protein activation, agonist, BRET |  |  | EC50 | 4.17 nM
CCCC[C@H]1C(=O)N2CCC[C@H]2C(=O)N[C@H](C(N)=O)CSCC(=O)N[C@@H](Cc2ccc(O)cc2)C(=O)N(C)[C@@H](Cc2ccc(OC)cc2)C(=O)N[C@@H](CCCNC(=N)N)C(=O)N(C)[C@@H](Cc2ccccc2)C(=O)N[C@@H](CC(=O)O)C(=O)N(C)[C@@H](CO)C(=O)N(C)[C@@H](Cc2ccc(O)cc2)C(=O)N[C@@H](CCC(N)=O)C(=O)N[C@@H](CO)C(=O)N(C)[C@@H](CO)C(=O)N(C)[C@@H](Cc2ccc(OC)cc2)C(=O)N[C@@H](C(C)C)C(=O)N(C)[C@@H](Cc2ccc(O)cc2)C(=O)N1C | 2,3-bisphosphoglycerate-independent phosphoglycerate mutase | biochemical |  |  | AC50 | 5620 nM
Cc1nc(=O)c2cc(CN(C)c3cccc(C(=O)N[C@@]4(C(=O)O)CCC[C@@H](C(=O)O)C4)c3)ccc2[nH]1 | 4'-phosphopantetheinyl transferase PptT | enzyme activity, inhibitor, fluorescence polarization |  | enzyme 100 nM | IC50 | 290 nM
C[C@H](NC(=O)[C@H](CCC(N)=O)NC(=O)[C@H](CCCCN)NC(=O)[C@H](C)NC(=O)[C@@H]1CCCN1C(=O)[C@H](C)NC(=O)[C@H](CCCCN)NC(=O)[C@H](CCC(N)=O)NC(=O)[C@H](C)NC(=O)[C@H](CCCCN)NC(=O)[C@H](CCC(N)=O)NC(=O)[C@@H]1CCCN1C(=O)[C@H](CCC(N)=O)NC(=O)[C@H](CCCCN)NC(=O)[C@H](C)NC(=O)[C@H](CCC(N)=O)NC(=O)[C@H](CCCCN)NC(=O)[C@H](C)NC(=O)[C@@H]1CCCN1C(=O)[C@H](C)NC(=O)[C@H](CCCCN)NC(=O)[C@H](CCC(N)=O)NC(=O)[C@H](C)NC(=O)[C@H](CCCCN)NC(=O)[C@H](CO)NC(=O)[C@H](Cc1ccc(O)cc1)NC(=O)CNC(=O)CNC(=O)CN)C(=O)N[C@@H](CCCCN)C(=O)N[C@@H](CCC(N)=O)C(=O)O |  | binding, SPR two-state model | rVλ6Wil fibrils | 300 nM | kd2 | 0.0024 s⁻¹
C[C@@H](O)[C@@H]1NC(=O)[C@H](CC(=O)O)NC(=O)[C@@H]2CCCN2C(=O)[C@H](Cc2ccc(O)cc2)NC(=O)CSC[C@@H](C(N)=O)NC(=O)[C@H](Cc2c[nH]cn2)NC(=O)[C@H](Cc2c[nH]c3ccccc23)NC(=O)[C@H](CCC(=O)O)NC(=O)[C@H](CC(=O)O)NC(=O)[C@H](Cc2ccc(O)cc2)N(C)C(=O)[C@H](Cc2ccc(O)cc2)NC(=O)[C@H](Cc2c[nH]c3ccccc23)NC(=O)[C@H](Cc2c[nH]c3ccccc23)NC(=O)[C@H](CC(N)=O)NC1=O | gpmI | biochemical |  |  | AC50 | 1.86 nM
Cc1nc(=O)c2cc(CN(C)c3ccc(C(=O)NCc4nsc(=O)[nH]4)s3)ccc2[nH]1 | 4'-phosphopantetheinyl transferase PptT | enzyme activity, inhibitor, fluorescence polarization |  | enzyme 100 nM | IC50 | 80 nM
COc1ccc(C[C@@H]2NC(=O)[C@H](Cc3ccc(O)cc3)NC(=O)[C@H](CO)NC(=O)[C@H](CC(=O)O)NC(=O)[C@H](Cc3ccc(O)cc3)NC(=O)[C@H](Cc3c[nH]c4ccccc34)NC(=O)[C@@H](Cc3ccc(O)cc3)NC(=O)CSC[C@@H](C(N)=O)NC(=O)[C@H]([C@@H](C)O)NC(=O)[C@H](Cc3ccc(O)cc3)NC(=O)[C@H](CCC(N)=O)NC(=O)[C@H](C)NC(=O)[C@H]([C@@H](C)O)NC(=O)CNC(=O)[C@@H]3CCCN3C(=O)[C@H](Cc3ccc(O)cc3)NC2=O)cc1 | 2,3-bisphosphoglycerate-independent phosphoglycerate mutase | biochemical |  |  | AC50 | 26900 nM
CC(=O)N[C@@H](CCCNC(=N)N)C(=O)N[C@@H](CCCNC(=N)N)C(=O)N[C@H](Cc1ccc(I)cc1)C(=O)N[C@H](C(N)=O)[C@@H](c1ccccc1)c1c[nH]c2ccccc12 | Melanocortin receptor 5 | cAMP, agonist, AlphaScreen |  |  | EC50 | 600 nM
CC(C)[C@@H]1NC(=O)[C@H](CCCNC(=N)N)NC(=O)[C@H](Cc2ccc(O)cc2)NC(=O)[C@H](CO)NC(=O)[C@H](Cc2ccc(O)cc2)N(C)C(=O)[C@H](CC(N)=O)NC(=O)CNC(=O)[C@H](Cc2ccc(O)cc2)N(C)C(=O)[C@H](Cc2ccccc2)N(C)C(=O)[C@H](CC(=O)O)NC(=O)[C@H](Cc2ccc(O)cc2)NC(=O)[C@H](Cc2ccccc2)N(C)C(=O)[C@H](Cc2ccc(O)cc2)N(C)C(=O)[C@H](Cc2ccc(O)cc2)NC(=O)CSC[C@@H](C(N)=O)NC(=O)[C@@H]2CCCN2C1=O | 2,3-bisphosphoglycerate-independent phosphoglycerate mutase | biochemical |  |  | AC50 | 309 nM
CC[C@H](C)[C@H](NC(=O)[C@@H]1CCCN1C(=O)[C@H](CC(C)C)NC(=O)[C@@H](NC(=O)[C@H](CCSC)NC(=O)[C@H](CC(N)=O)NC(=O)[C@@H](NC(=O)[C@H](Cc1ccc(O)cc1)NC(=O)[C@@H](N)Cc1c[nH]cn1)[C@@H](C)CC)[C@@H](C)CC)C(=O)O | H-2 class I histocompatibility antigen, K-D alpha chain, 29 (H2-K1, Mus musculus, UniProt P01902) | peptide binding to H-2K, competitor |  | together with: radiolabelled standard peptide | IC50 | 0.23 nM
CC(=O)N[C@@H](CCCNC(=N)N)C(=O)N[C@@H](CCCNC(=N)N)C(=O)N[C@@H](C(=O)N1Cc2ccccc2C[C@H]1C(N)=O)[C@H](c1ccccc1)c1c[nH]c2ccccc12 | Melanocortin receptor 5 | cAMP, agonist, AlphaScreen |  |  | EC50 | 3200 nM
CCCCCc1cc(O)c2c(c1)OC(C)(C)C1CCC(C)=CC21 (single isomer, unassigned; (-)) | CYP2C19 (Homo sapiens, UniProt P33261) | enzyme activity, inhibitor | human liver microsomes | pH 7.4, unbound, fu,inc corrected, together with: omeprazole | Ki | 210 ± 82 nM
Cc1nc(=O)c2cc(CN(C)c3cccc(C(=O)N[C@@H](CCC(=O)O)C(=O)O)c3)ccc2[nH]1 | 4'-phosphopantetheinyl transferase PptT | enzyme activity, inhibitor, FP |  |  | IC50 | < 100 nM
CC(C)(C)C1CCc2c(sc3nc(SCCN4CCCC4)nc(N)c23)C1 (stereo not drawn) | eis (Mycobacterium tuberculosis, UniProt P9WFK7) | inhibitor |  |  | IC50 | 23000 ± 5000 nM

For quick reference, copied from above:
Compound | target or system | assay | test system | setting | measurement | result
COc1ccc(C[C@@H]2NC(=O)[C@H](Cc3ccc(O)cc3)NC(=O)[C@H](CO)NC(=O)[C@H](CC(=O)O)NC(=O)[C@H](Cc3ccc(O)cc3)NC(=O)[C@H](Cc3c[nH]c4ccccc34)NC(=O)[C@@H](Cc3ccc(O)cc3)NC(=O)CSC[C@@H](C(N)=O)NC(=O)[C@H]([C@@H](C)O)NC(=O)[C@H](Cc3ccc(O)cc3)NC(=O)[C@H](CCC(N)=O)NC(=O)[C@H](C)NC(=O)[C@H]([C@@H](C)O)NC(=O)CNC(=O)[C@@H]3CCCN3C(=O)[C@H](Cc3ccc(O)cc3)NC2=O)cc1 | 2,3-bisphosphoglycerate-independent phosphoglycerate mutase | biochemical |  |  | AC50 | 26900 nM
CC(=O)N[C@@H](CCCNC(=N)N)C(=O)N[C@@H](CCCNC(=N)N)C(=O)N[C@H](Cc1ccc(I)cc1)C(=O)N[C@H](C(N)=O)[C@@H](c1ccccc1)c1c[nH]c2ccccc12 | Melanocortin receptor 5 | cAMP, agonist, AlphaScreen |  |  | EC50 | 600 nM
